Measurements from different studies.
A part holds a random share of what one study measured. Changes are numbered by the printed parent chain.

Study 1
Target: Hepatocyte nuclear factor 3-beta, forkhead domain (FOXA2, Homo sapiens, UniProt Q9Y261, residues 142-269)
Method: protein-binding microarray
Form: double-stranded DNA, one strand shown
Matrix: in vitro
Tested at: not given
Setting: k-mer, scored over probes, only values ≥0.25
Reading: higher = stronger binding
Measurement: E-score
Target sequence (chain): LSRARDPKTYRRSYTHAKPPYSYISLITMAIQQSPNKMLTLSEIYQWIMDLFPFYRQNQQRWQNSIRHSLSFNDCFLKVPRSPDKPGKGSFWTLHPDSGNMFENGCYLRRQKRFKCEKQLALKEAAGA
ATAAATTG: 0.255
ACAATACT: 0.342
TGTGTTAA: 0.307
AACCACAT: 0.255
TCGATACA: 0.318
AAAATATG: 0.26
AACAAAGT: 0.289
ACAGAATA: 0.313
CAGATACA: 0.304
ACAAACAA: 0.393
CATAAAAA: 0.261
CATAATAC: 0.326
ATAATTCG: 0.256
AATGTTTG: 0.306
CCACATAC: 0.268
ACACTATA: 0.28
CACAGTTA: 0.301
GTATTAGA: 0.275
GTATAAAC: 0.269
TGATATAA: 0.255
GTTGACAA: 0.283
GCATATAA: 0.253
ACATATAT: 0.435
GTAGTTAA: 0.251
TGACATAA: 0.306

Study 2
Target: RNA binding protein fox-1 homolog 2, RRM domain, GST-SBP tag (RBFOX2, Homo sapiens, UniProt O43251-10, residues 100-194)
Method: RNA Bind-n-Seq
Form: RNA
Matrix: in vitro
Tested at: 365 nM
Setting: natural RNA segment, single round, ends assumed
Reference: no-protein control
Reading: higher = stronger binding
Measurement: RBNS enrichment (R)
Shared flanks, not repeated: GGGAGUUCUACAGUCCGACGAUC … UGGAAUUCUCGGGUGCCAA
Residues (chain): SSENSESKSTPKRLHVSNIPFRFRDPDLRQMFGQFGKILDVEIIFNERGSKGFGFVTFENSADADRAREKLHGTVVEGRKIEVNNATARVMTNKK
UGCAGAUGAGAUCUGUACUAUAGUCUACAAUUUGUAUCCUGUCUCUCCCACCACCCCCGGCAGUGUCCAGACAGGAGAGCAGAUGCCACUCUCCCCUUUUACCAUGACCU: 0.324
CUCUUAUUUGGAAGACUAGCAUGACCUUGCUGUUGAUGUGCCCAUGUAGCAGGGUAAAAGAAAAUUCAUUUUCUAACAAAAUACUCACAUUCAUGAUCUACUGUAGGAGA: 2.05
GGAAAGCAGGAAGGGGAAUUUUUAUCCUCCUCCCUUCCGUAAAGUGCUGGGAUAUUUUGAAUCCCCCAAGUUCCCUUGGACCUACUGAUGAGAGAUAGUUUUAUGUAUGG: 0.585
ACCCUAUCUAUGUGGCUUACAACAUUAGCCAGCACUGGAGGGACCGCAGGGAAGACCUGUGGCUAGGAGCAGGCUUUCAGCUGACAUGAAGAUGGCCCCCGCACAGCCUU: 0.338
UUUACUUCACCUGAGGGAAUAGCCUCUCUACCUCGCAGAAAAUGUACCCUACCCCUCAAAUAUUGCCUUGGUUUGGUUUGGUUUGGUUUGGUUUGGGUUUGUUUUUGCCU: 0.633
CCUAAGGAACAGCAUUUCUCUGCUCCUCAGUCAACCCCCGUAGCCUAGAGCAGUGUCACAAGCUUCAGUAAGGCCAGUCAGCUGGAAGUCAGUCUACCGUAUAGUAACAC: 0.269
CUUCUUUUUUCCCUUUUGUUUCUUGUCACCAAGAAGUUAUCACACUUAUACUUAUUCUAUAAGGCCAAAGCCUUAUCUAGAAAGAUCAUGAAGAGUUUGGAUAUUUUUAA: 0.524
GUGCCCGAGAGCUGCCUGGUGUCAGGUAGAGAGGACACUGUACCUGGGUGAAUGAUCAGACCCUGGUAGCUAAGAAGGAACUUGUCCCUUUGAGUCAGUGUGCAGACCCC: 1.45
AACAAGACAUUUACUAAGAAGAGCUAAAGGAAAGAAUUAAAGGUUUCUUAUGCUUUUUUGGGGGGGGGUGUCAAUUUUUAGUAUAUUAAGAGCUAAAAGAAGUAAAGGUU: 0.73
ACUGAGAGAAGGUGAAAUAAAGCCAUAUUUAGUAUACCAGAGAAGGUAGAUUUUAAGAAUGGUCUCAGUGUUAAUACUGAGAAAAAGUCCUGUCAGUUCAGAAAAAAUGU: 0.367
GGGUUUAGAAAUUCAUUUAUAACUGGUUCUCUGAUGUGGGAAAUCCUGAUUCUGUCCCGGGUUCUUUGCUACUUCCUUGAAAAUACUCUAGCUUCAUGCUGGGUCAAGGU: 0.301
UUUUCUUAAUAUCCCUCUAUAAUGCCAGAAAUUGGCAUAAAUGGUACAUUCACUAAAUUUAUCAAAUAAAUUUAAAACUAGAUUGUUCCUAAGUCCAAUUGUUGAAAUUG: 0.365

Study 3
Target: Ras GTPase-activating protein-binding protein 1, RRM domain (G3BP1, Homo sapiens, UniProt Q13283)
UniProt Q13283, sequence (whole entry, looked up): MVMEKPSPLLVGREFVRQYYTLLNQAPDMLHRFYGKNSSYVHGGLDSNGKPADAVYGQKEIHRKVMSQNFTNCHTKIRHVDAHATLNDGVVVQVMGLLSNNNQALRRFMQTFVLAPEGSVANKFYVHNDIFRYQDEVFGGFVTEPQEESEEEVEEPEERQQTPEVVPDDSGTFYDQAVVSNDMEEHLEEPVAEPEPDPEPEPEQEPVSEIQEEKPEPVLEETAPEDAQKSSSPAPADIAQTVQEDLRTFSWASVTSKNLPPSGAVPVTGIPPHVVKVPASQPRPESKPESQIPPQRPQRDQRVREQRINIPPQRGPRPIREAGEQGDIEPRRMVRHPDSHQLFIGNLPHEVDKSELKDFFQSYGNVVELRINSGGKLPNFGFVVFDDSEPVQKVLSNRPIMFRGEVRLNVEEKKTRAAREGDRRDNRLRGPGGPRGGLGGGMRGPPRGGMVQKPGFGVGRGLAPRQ
Method: RNA Bind-n-Seq
Form: RNA
Matrix: in vitro
Tested at: 1 µM
Setting: whole 134-nt RNA, ends assumed
Added: 150 mM KCl
Reference: input library
Reading: higher = stronger binding
Measurement: log2 enrichment
Shared flanks, not repeated: GGGAGUUCUACAGUCCGACGAUC … UGGAAUUCUCGGGUGUCAAGG
UCCUGUGCUACACAUCGUAUGUACCGAAUCGGUUUUUUGGGUUUUUUGGGGUUUUUUGGAAAGUAUUAUGUUACGCCGUUCGGAUCUGCA: -0.177
CACAUACAACACGCACCCACACAGACACAGAGGGAAGGGGUUGGGAUGGGGACAGGGUGCACAGCAGGGCGGGGUAGGACCCCAGCCCCU: -0.0695
UCCUGUGCUACACAUCGUAUGUACCGAAUCAAACCCAAAUUUUUUUAAACCCCCCCAAAAAAGUAUUAUGUUACGCCGUUCGGAUCUGCA: -0.564
ACCAUGCAGGUGGGCAUCUUUGGGACGUGGGGCAAGGGGGGGAUAGGGAGGGGGGUAACACUUUGGGAACAGGUGGUCCCAGGUCGUUUC: -0.521
UCAAGUCCUGUGCUACACAUCGUAUGUACCGAAUCGGAAAGGAAAGGGGAAAGGGAAAGUAUUAUGUUACGCCGUUCGGAUCUGCACUUC: -0.272
CACAGACAACACCCACCCACACAGACACAGAGGGAAGGGGUUGGGAUGGGGACAGGGUGCACAGCAGGGCGGGGUAGGACCCCAGCCCCU: -0.0381
CCUCAAGUCCUGUGCUACACAUCGUAUGUACCGAAUCGGUGGGUGGGUGGGGAAAGUAUUAUGUUACGCCGUUCGGAUCUGCACUUCCAG: 0.27
UAACUUUAGAGGAGGAUCUGAUGGAUAUGGCAGUGGACGUGGAUUUCGGGAUGGCUAUAAUGGGUAUGGAGGAGGACCUGGAGGUGGCAA: -0.447
UAGAGACUUCAGAUGGAUUUUAAAAUUGAACACACUUGGGAUGGUUUUCCAGUGAAGCAUGAGCCCGUAUUUAUCAGGCUGAAUCCAGGU: -0.373
CAAGUCCUGUGCUACACAUCGUAUGUACCGAAUCGGUUUUUGGUUUUUGGUUUGGAAAGUAUUAUGUUACGCCGUUCGGAUCUGCACUUC: -0.24
CAAGUCCUGUGCUACACAUCGUAUGUACCGAAUCGGGGCCGGGGCCGGGCCGGGGAAAGUAUUAUGUUACGCCGUUCGGAUCUGCACUUC: -1.11
UCCUGUGCUACACAUCGUAUGUACCGAAUCGGGGAAAAAGGGGUUUUUGGGGUUUGGGGAAAGUAUUAUGUUACGCCGUUCGGAUCUGCA: 1.23
CAAGUCCUGUGCUACACAUCGUAUGUACCGAAUCGGGGAAAGGAAAGGGAAAGGGGAAAGUAUUAUGUUACGCCGUUCGGAUCUGCACUU: 0.0865
AAGUCCUGUGCUACACAUCGUAUGUACCGAAUCGGGCCCCGGCCCCGGGCCCCGGGGAAAGUAUUAUGUUACGCCGUUCGGAUCUGCACU: -0.98

Study 4
Target: ABI1, truncated, D143A, DHFR fusion (Arabidopsis thaliana)
Method: DHFR PCA, deep sequencing
Matrix: yeast
Setting: methotrexate growth selection, single substitutions
Added: (+)-ABA 0.11 µM
Reference: wild-type fitted maximum
Reading: higher = stronger binding
Measurement: relative binding score
Starting sequence: PYL1, truncated, DHFR fusion (Arabidopsis thaliana); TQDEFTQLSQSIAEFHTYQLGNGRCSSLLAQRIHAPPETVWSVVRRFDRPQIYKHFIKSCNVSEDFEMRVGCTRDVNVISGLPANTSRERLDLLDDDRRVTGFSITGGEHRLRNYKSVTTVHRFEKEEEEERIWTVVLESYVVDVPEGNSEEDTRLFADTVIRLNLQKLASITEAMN
A35G: -0.526%
K116Q: 28%
T120A: -2.19%
V40K: -3.16%
V62Y: -4.29%
H122W: -3.29%
G102D: -3.19%
R99D: -5.86%
L112V: -3.25%
A35L: -0.0668%
V118N: 3.5%
G71N: 1.7%
Y141C: 7.11%
V44F: -2.93%
I105Y: -8.61%
A175D: 24.1%
Y115P: -5.88%
F103Q: -4.63%
E147C: 5.41%
L169H: -2.8%
L8Y: 29.9%
G21A: 30%
R163Y: -6.77%
R155P: -3.91%
T86K: 12.9%

Study 5
Target: Histone acetyltransferase KAT6A, both winged helices, GST fusion (KAT6A, Homo sapiens, UniProt Q92794, residues 1-181)
Method: protein binding microarray
Form: double-stranded DNA, one strand shown
Matrix: in vitro
Tested at: not given
Setting: 8-mer, flanks averaged, mean of 2 arrays, mostly near background
Reference: not given
Reading: higher = stronger binding
Measurement: E-score
Target sequence (chain): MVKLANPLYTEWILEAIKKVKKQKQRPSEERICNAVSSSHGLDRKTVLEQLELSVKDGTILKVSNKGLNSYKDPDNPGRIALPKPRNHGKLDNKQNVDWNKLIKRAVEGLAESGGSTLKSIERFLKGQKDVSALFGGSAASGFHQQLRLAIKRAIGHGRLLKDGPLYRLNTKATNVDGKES
CTCTAAAA: -0.0595
ACTCGCTG: 0.0284
ATACCACC: -0.0174
AAGGTCAG: -0.184
CCAATTGA: -0.188
AGCATCGC: 0.135
AAGTTTCG: -0.00752
ACTTACGG: 0.2
TTACCAAA: -0.0723
ATAACGTA: -0.0741
CTGCAGGA: -0.169
ATTCAGAA: -0.00384
AGGCCAGG: -0.114
ACGTGTAG: 0.00707
CGTATGGA: 0.0175
CACTCTCG: -0.073
AGTACAAC: -0.0332
TCAGGGCA: -0.185
ATGGATGC: -0.107
CGTATTAG: 0.096
CTAGTCAA: -0.196
ATTTGGTC: -0.08
CTGGTCAA: -0.127
CACAGCAA: 0.0627

Excerpt of the above (study 3):
CAAGUCCUGUGCUACACAUCGUAUGUACCGAAUCGGGGAAAGGAAAGGGAAAGGGGAAAGUAUUAUGUUACGCCGUUCGGAUCUGCACUU: 0.0865
UCCUGUGCUACACAUCGUAUGUACCGAAUCGGUUUUUUGGGUUUUUUGGGGUUUUUUGGAAAGUAUUAUGUUACGCCGUUCGGAUCUGCA: -0.177
CAAGUCCUGUGCUACACAUCGUAUGUACCGAAUCGGGGCCGGGGCCGGGCCGGGGAAAGUAUUAUGUUACGCCGUUCGGAUCUGCACUUC: -1.11
UCCUGUGCUACACAUCGUAUGUACCGAAUCAAACCCAAAUUUUUUUAAACCCCCCCAAAAAAGUAUUAUGUUACGCCGUUCGGAUCUGCA: -0.564
CACAUACAACACGCACCCACACAGACACAGAGGGAAGGGGUUGGGAUGGGGACAGGGUGCACAGCAGGGCGGGGUAGGACCCCAGCCCCU: -0.0695
UAACUUUAGAGGAGGAUCUGAUGGAUAUGGCAGUGGACGUGGAUUUCGGGAUGGCUAUAAUGGGUAUGGAGGAGGACCUGGAGGUGGCAA: -0.447
UAGAGACUUCAGAUGGAUUUUAAAAUUGAACACACUUGGGAUGGUUUUCCAGUGAAGCAUGAGCCCGUAUUUAUCAGGCUGAAUCCAGGU: -0.373
